Published values pooled from the literature.
Compare with care: the assays were run in different laboratories. ± marks the error that the study gave.

NC[C@@H]1O[C@H](O[C@H]2[C@@H](O)[C@H](O[C@@H]3[C@@H](O)[C@H](N)C[C@H](N)[C@H]3O[C@H]3O[C@@H]4COCO[C@H]4[C@H](O)[C@H]3N)O[C@@H]2CO)[C@H](N)[C@@H](O)[C@@H]1O
IC50 (Mycobacterium smegmatis ribosome G1491C; translation, cell-free luciferase synthesis): 522 ± 44.6 µg/mL

CC(=O)N[C@H]1CSC(=O)[C@H](Cc2ccccc2)NC(=O)[C@H](Cc2ccccc2)NC(=O)CCCCCCCNC1=O
IC50 (AgrC (Staphylococcus aureus); reporter gene, inhibitor; Staphylococcus aureus, AH1747 (MW2); 24 h): 0.0348 µM

CC(C)S[C@H]1[C@H](O)[C@@H](N)[C@@H](O[C@H]2[C@H](O[C@@H]3O[C@H](CO)[C@@H](O[C@H]4O[C@@H](CN)[C@@H](O)[C@H](O)[C@H]4N)[C@H]3O)[C@@H](O)[C@H](N)C[C@@H]2N)O[C@@H]1CO
IC50 (bacterial hybrid ribosome, human mitochondrial A1555G A site; cell-free translation, inhibitor): 125 µg/mL

CC(=O)N[C@H]1CNC(=O)[C@H](Cc2ccccc2)NC(=O)[C@H](Cc2ccccc2)NC(=O)COCCOCCNC1=O
IC50 (AgrC (Staphylococcus aureus); reporter gene, inhibitor; Staphylococcus aureus, AH1872 (MN EV); 24 h): > 10 µM

CC1OCC2OC(OC3C(N)CC(N)C(O)C3OC3OC(CO)C(OC4OC(CN)C(O)C(O)C4N)C3O)C(N)C(O)C2O1 (centres unmarked)
IC50 (Mycobacterium smegmatis ribosome G1491C; translation, cell-free luciferase synthesis): 180 ± 45.3 µg/mL

CCS(=O)(=O)[C@H]1[C@H](O)[C@@H](N)[C@@H](O[C@H]2[C@H](O[C@@H]3O[C@H](CO)[C@@H](O[C@H]4O[C@@H](CN)[C@@H](O)[C@H](O)[C@H]4N)[C@H]3O)[C@@H](O)[C@H](N)C[C@@H]2N)O[C@@H]1CO
IC50 (wild-type bacterial ribosome; cell-free translation, inhibitor): 8.5 µg/mL

COCO[C@H]1[C@H](O)[C@@H](N)[C@@H](O[C@H]2[C@H](O[C@@H]3O[C@H](CO)[C@@H](O[C@H]4O[C@@H](CN)[C@@H](O)[C@H](O)[C@H]4N)[C@H]3O)[C@@H](O)[C@H](N)C[C@@H]2N)O[C@@H]1CO
IC50 (Mycobacterium smegmatis ribosome G1491C; translation, cell-free luciferase synthesis): 167 ± 11.3 µg/mL

CCCS[C@H]1[C@H](O)[C@@H](N)[C@@H](O[C@H]2[C@H](O[C@@H]3O[C@H](CO)[C@@H](O[C@H]4O[C@@H](CN)[C@@H](O)[C@H](O)[C@H]4N)[C@H]3O)[C@@H](O)[C@H](N)C[C@@H]2N)O[C@@H]1CO
IC50 (bacterial hybrid ribosome, human mitochondrial A site; cell-free translation, inhibitor): 125 µg/mL

CO[C@H]1[C@H](O)[C@@H](N)[C@@H](O[C@H]2[C@H](O[C@@H]3O[C@H](CO)[C@@H](O[C@H]4O[C@@H](CN)[C@@H](O)[C@H](O)[C@H]4N)[C@H]3O)[C@@H](O)[C@H](N)C[C@@H]2N)O[C@@H]1CO
IC50 (Mycobacterium smegmatis ribosome G1491C; translation, cell-free luciferase synthesis): 242 ± 6.2 µg/mL

O=C(Oc1nsnc1N1CCOCC1)c1ccccc1
IC50 (trypsin; inhibitor, gel-based; with: denatured BSA): 16.9 ± 1 µM

CCCCCCCCC(=O)NCc1ccc(O)c(OC)c1
IC50 (mouse mAb 1-G12; antibody binding, indirect competitive ELISA; with: coating antigen 1-OVA): 0.383 µg/mL

CCO[C@H]1[C@H](O)[C@@H](N)[C@@H](O[C@H]2[C@H](O[C@@H]3O[C@H](CO)[C@@H](O[C@H]4O[C@@H](CN)[C@@H](O)[C@H](O)[C@H]4N)[C@H]3O)[C@@H](O)[C@H](N)C[C@@H]2N)O[C@@H]1CO
IC50 (Mycobacterium smegmatis ribosome G1491C; translation, cell-free luciferase synthesis): 259 ± 31.7 µg/mL

CC[C@@H](C)[C@@H](NC(=O)[C@@H](CCCCN)NC(=O)[C@H](NC(=O)[C@@H](CCC(N)=O)NC(=O)[C@@H](CCCNC(=N)N)NC(=O)[C@@H](CC(C)C)NC(=O)CNC(=O)[C@@H](Cc1ccccc1)NC(=O)CNC(=O)[C@@H](Cc1ccc(O)cc1)NC(=O)CNC(=O)[C@@H](CCCCN)NC(=O)[C@H](NC(=O)[C@@H](Cc1ccccc1)NC(=O)[C@H](NC(=O)[C@@H](CC(=O)O)NC(=O)[C@@H](CCCNC(=N)N)NC(=O)[C@@H](C)NC(=O)[C@@H](CO)NC(=O)[C@@H](CCCCN)NC(=O)CNC(=O)[C@@H](CC(C)C)NC(=O)[C@@H](CC(=O)O)NC(=O)[C@@H](C)NC(=O)[C@@H](Cc1ccc(O)cc1)NC(=O)[C@H](NC(=O)[C@H]1CCCN1C(=O)[C@H]1CCCN1C(=O)[C@H](NC(=O)[C@@H](C)NC(=O)[C@H](N)CCSC)C(C)C)[C@H](C)O)C(C)C)[C@H](C)O)[C@H](C)CC)C(=O)N[C@H](Cc1c[nH]c2ccccc12)C(=O)N[C@H](Cc1ccccc1)C(=O)N[C@H](CCC(N)=O)C(=O)N[C@H](CC(N)=O)C(=O)N[C@H](CCCNC(=N)N)C(=O)N[C@H](CCCNC(=N)N)C(=O)N[C@H](CCSC)C(=O)N[C@H](CCCCN)C(=O)N[C@H](Cc1c[nH]c2ccccc12)C(=O)N[C@H](CCCCN)C(=O)N[C@H](CCCCN)C(=O)O
IC50 (cell death; PI staining flow cytometry; MEC1; 90 min): 2.2 µM

CC(=O)N[C@H]1CNC(=O)[C@H](Cc2ccccc2)NC(=O)[C@H](Cc2ccccc2)NC(=O)CCCCCCCCNC1=O
IC50 (AgrC (Staphylococcus aureus); reporter gene, inhibitor; Staphylococcus aureus, AH1747 (MW2); 24 h): 2.61 µM

CC[C@@H]1CN2CCc3c([nH]c4cccc(OC)c34)[C@H]2C[C@@H]1/C(=C\OC)C(=O)OC
IC50 (rabbit anti-mitragynine polyclonal antibody; antigen binding, competitor, competitive indirect ELISA; 0.001 to 50.0 µg/mL): 2.29 µg/mL

NC[C@@H]1O[C@H](O[C@H]2[C@@H](O)[C@H](O[C@@H]3[C@@H](O)[C@H](N)C[C@H](N)[C@H]3O[C@H]3O[C@H](CO)[C@@H](SCCF)[C@H](O)[C@H]3N)O[C@@H]2CO)[C@H](N)[C@@H](O)[C@@H]1O
IC50 (bacterial hybrid ribosome, human cytoplasmic A site; cell-free translation, inhibitor): 69 µg/mL

CCN(C)C(=O)Oc1ccccc1/C=C1\Cc2cc(OC)c(OC)cc2C1=O
IC50 (CES2A, mouse; irinotecan hydrolysis, inhibitor; mouse intestinal S9; 30 min preincubation, with: irinotecan): 0.0903 µM

CC(C)CS[C@H]1[C@H](O)[C@@H](N)[C@@H](O[C@H]2[C@H](O[C@@H]3O[C@H](CO)[C@@H](O[C@H]4O[C@@H](CN)[C@@H](O)[C@H](O)[C@H]4N)[C@H]3O)[C@@H](O)[C@H](N)C[C@@H]2N)O[C@@H]1CO
IC50 (wild-type bacterial ribosome; cell-free translation, inhibitor): 0.1 µg/mL

NC[C@@H]1O[C@H](O[C@H]2[C@@H](O)[C@H](O[C@@H]3[C@@H](O)[C@H](N)C[C@H](N)[C@H]3O[C@H]3O[C@H](CO)[C@@H](OCC(O)CO)[C@H](O)[C@H]3N)O[C@@H]2CO)[C@H](N)[C@@H](O)[C@@H]1O (some centres unmarked)
IC50 (Mycobacterium smegmatis ribosome G1491A; translation, cell-free luciferase synthesis): 2.57 ± 0.48 µg/mL

CC[C@@H](C)[C@@H](NC(=O)[C@@H](CCCCN)NC(=O)[C@H](NC(=O)[C@@H](CCC(N)=O)NC(=O)[C@@H](CCCNC(=N)N)NC(=O)[C@@H](CC(C)C)NC(=O)CNC(=O)[C@@H](Cc1ccccc1)NC(=O)CNC(=O)[C@@H](Cc1ccc(O)cc1)NC(=O)CNC(=O)[C@@H](CCCCN)NC(=O)[C@H](NC(=O)[C@@H](Cc1ccccc1)NC(=O)[C@H](NC(=O)[C@@H](CC(=O)O)NC(=O)[C@H](N)CCCNC(=N)N)C(C)C)[C@H](C)O)[C@H](C)CC)C(=O)N[C@H](Cc1c[nH]c2ccccc12)C(=O)N[C@H](Cc1ccccc1)C(=O)N[C@H](CCC(N)=O)C(=O)N[C@H](CC(N)=O)C(=O)N[C@H](CCCNC(=N)N)C(=O)N[C@H](CCCNC(=N)N)C(=O)N[C@H](CCSC)C(=O)N[C@H](CCCCN)C(=O)N[C@H](Cc1c[nH]c2ccccc12)C(=O)N[C@H](CCCCN)C(=O)N[C@H](CCCCN)C(=O)O
IC50 (cell death; PI staining flow cytometry; MEC1; 90 min): 2.1 µM

CC[S+]([O-])C1C(CO)OC(OC2C(N)CC(N)C(O)C2OC2OC(CO)C(OC3OC(CN)C(O)C(O)C3N)C2O)C(N)C1O (mixture of isomers)
IC50 (bacterial hybrid ribosome, human mitochondrial A1555G A site; cell-free translation, inhibitor): 139 µg/mL

NC[C@@H]1O[C@H](O[C@H]2[C@@H](O)[C@H](O[C@@H]3[C@@H](O)[C@H](N)C[C@H](N)[C@H]3O[C@H]3O[C@H](CO)[C@@H](OCCO)[C@H](O)[C@H]3N)O[C@@H]2CO)[C@H](N)[C@@H](O)[C@@H]1O
IC50 (Mycobacterium smegmatis ribosome G1491C; translation, cell-free luciferase synthesis): 152 ± 51.3 µg/mL

Cc1cc(O)cc(C)c1C[C@@H]1NC[C@H](CCCCN)NC(=O)[C@H](Cc2ccccc2)NC(=O)[C@@H](CCCNC(=N)N)NC1=O
IC50 (mu opioid receptor, guinea pig; electrically evoked contraction; guinea pig ileum): 2.51 ± 0.36 µM

C[C@@H](NC(=O)[C@@H](N)Cc1ccc(O)cc1)C(=O)NCC(=O)N[C@@H](Cc1ccc(F)cc1)C(=O)N1CCN(C(=O)[C@H](Cc2ccc(F)cc2)NC(=O)CNC(=O)[C@@H](C)NC(=O)[C@@H](N)Cc2ccc(O)cc2)CC1
IC50 (mu opioid receptor, guinea pig; ileum contraction, agonist; guinea pig ileum LMMP): 0.00048 ± 7e-05 µM

CC(=O)N[C@H]1CSC(=O)[C@H](Cc2ccccc2)NC(=O)[C@H](Cc2ccccc2)NC(=O)CCCCCCCCNC1=O
IC50 (AgrC (Staphylococcus aureus); reporter gene, inhibitor; Staphylococcus aureus, AH1677 (USA300 LAC); 24 h): 0.468 µM

NC[C@@H]1O[C@H](O[C@H]2[C@@H](O)[C@H](O[C@@H]3[C@@H](O)[C@H](N)C[C@H](N)[C@H]3O[C@H]3O[C@H](CO)[C@@H](CCO)[C@H](O)[C@H]3N)O[C@@H]2CO)[C@H](N)[C@@H](O)[C@@H]1O
IC50 (bacterial hybrid ribosome, human mitochondrial A1555G A site; cell-free translation, inhibitor): 25 µg/mL

For quick reference, copied from above:
COCO[C@H]1[C@H](O)[C@@H](N)[C@@H](O[C@H]2[C@H](O[C@@H]3O[C@H](CO)[C@@H](O[C@H]4O[C@@H](CN)[C@@H](O)[C@H](O)[C@H]4N)[C@H]3O)[C@@H](O)[C@H](N)C[C@@H]2N)O[C@@H]1CO
IC50 (Mycobacterium smegmatis ribosome G1491C; translation, cell-free luciferase synthesis): 167 ± 11.3 µg/mL
